Measurements from different studies.
Protocols differ between the studies behind these lines. Values joined by “and” are separate records of one study, mostly repeats; a detail may differ.
Organism: Staphylococcus aureus

SMILES | test | system | setting | MIC
CC(=O)N[C@@H](CCCNC(=N)N)C(=O)N[C@@H](Cc1c[nH]c2ccccc12)C(=O)N[C@@H](CCCNC(=N)N)C(=O)N[C@@H](Cc1c[nH]c2ccccc12)C(=O)N[C@@H](Cc1c[nH]c2ccccc12)C(=O)N[C@@H](CCCCN)C(=O)N[C@@H](Cc1ccccc1)C(=O)N[C@H](C(N)=O)C(C)C | – | MSSA ATCC 29213, Mueller-Hinton broth | overnight, 37 °C | 11.3 µM
CC[C@H](C)[C@H](NC(=O)[C@H](CCCNC(=N)N)NC(=O)[C@H](Cc1ccccc1)NC(=O)[C@H](CC(C)C)NC(=O)[C@H](CCCCN)NC(=O)[C@H](CO)NC(=O)[C@@H](NC(=O)[C@H](CC(C)C)NC(=O)[C@H](CCCCN)NC(=O)[C@H](C)NC(=O)[C@H](CC(N)=O)NC(=O)[C@H](CCCNC(=N)N)NC(=O)[C@H](Cc1ccc(O)cc1)NC(=O)[C@H](C)NC(=O)[C@@H](NC(=O)[C@H](CCCCN)NC(=O)[C@H](CC(N)=O)NC(=O)[C@H](CCCCN)NC(=O)[C@H](CC(C)C)NC(=O)[C@H](CO)NC(=O)[C@H](CC(C)C)NC(=O)[C@H](C)NC(=O)[C@H](C)NC(=O)[C@H](CO)NC(=O)[C@@H](NC(=O)[C@@H](NC(=O)[C@H](Cc1c[nH]c2ccccc12)NC(=O)[C@@H](NC(=O)[C@H](CO)NC(=O)[C@@H](NC(=O)[C@@H](N)CC(C)C)C(C)C)C(C)C)[C@@H](C)CC)[C@@H](C)CC)C(C)C)C(C)C)C(=O)N[C@@H](C)C(=O)N[C@@H](CC(C)C)C(=O)O | broth microdilution | ATCC 29213 | 24 h, 37 °C | 16 mg/L
CC(C)[C@H](NC(=O)[C@H](CCCCN)NC(=O)[C@H](CCCNC(=N)N)NC(=O)[C@@H](NC(=O)[C@H](C)NC(=O)[C@H](CC(N)=O)NC(=O)[C@H](CCCNC(=N)N)NC(=O)[C@@H](NC(=O)[C@H](CCCCN)NC(=O)[C@H](CCCCN)NC(=O)[C@@H](NC(=O)[C@@H](NC(=O)[C@H](CCCNC(=N)N)NC(=O)[C@H](CCCNC(=N)N)NC(=O)[C@H](Cc1c[nH]c2ccccc12)NC(=O)[C@H](Cc1c[nH]c2ccccc12)NC(=O)CN)[C@@H](C)O)C(C)C)C(C)C)C(C)C)C(=O)O | bacterial growth | ATCC 25923 | 18 h | 32 mg/L
CC(C)CCCCCCCCC/C=C/C(=O)N[C@@H](CC(=O)O)C(=O)N[C@H]1CNC(=O)[C@@H]2CCCN2C(=O)CNC(=O)[C@@H]([C@@H](C)O)NC(=O)CNC(=O)[C@H](CC(=O)O)NC(=O)CNC(=O)[C@H](CC(=O)O)NC(=O)CNC(=O)[C@H]2CCCCN2C1=O | – | MRSA USA300 | together with: Ca2+ 10 mM | > 64 mg/L
CC[C@H](C)[C@H](NC(=O)[C@@H](NC(=O)CN)C(C)C)C(=O)N[C@@H](Cc1ccccc1)C(=O)N[C@@H](CC(N)=O)C(=O)N[C@@H](C)C(=O)N[C@@H](CC(C)C)C(=O)N[C@@H](CCCCN)C(=O)NCC(=O)N[C@H](C(=O)N[C@@H](C)C(=O)N[C@@H](CCCCN)C(=O)N[C@H](C(=O)N[C@H](C(=O)N[C@@H](C)C(=O)N[C@@H](C)C(=O)N[C@@H](CCC(N)=O)C(=O)N[C@@H](CC(C)C)C(=O)N[C@@H](CC(C)C)C(=O)N[C@@H](CCCCN)C(=O)N[C@@H](CCCCN)C(=O)N[C@@H](C)C(=O)N[C@@H](CCCNC(=N)N)C(=O)N[C@H]1CSSC[C@@H](C(=O)O)NC(=O)[C@H](CO)NC(=O)[C@H](CCCCN)NC(=O)[C@H](CC(=O)O)NC(=O)[C@H](CC(C)C)NC(=O)[C@H](CCCCN)NC1=O)C(C)C)[C@@H](C)O)C(C)C | – | NCTC 10788, Mueller-Hinton broth | together with: CaCl2 2.5 mM | 2 µM
CN1C(=O)[C@@H]2NC(=O)[C@@H]3NC(=O)[C@@H](c4ccc(O)cc4)NC(=O)[C@H](NC(=O)C(NCc4cccc(O)c4O)c4ccc(O)cc4)Cc4c[nH]c5cc(ccc45)-c4cc3cc(c4O)Oc3ccc(cc3)C[C@H]1C(=O)N[C@@H](C(=O)O)c1ccc(O)c(c1)Oc1ccc2cc1 (stereo partly shown) | – | ATCC 33591 MRSA, Mueller-Hinton broth | – | 16 mg/L
CC(CCCOC(=O)CCC[N+](C)(C)C)C1CCC2C3C(OC(=O)CCC[N+](C)(C)C)CC4CC(OC(=O)CCC[N+](C)(C)C)CCC4(C)C3CC(OC(=O)CCC[N+](C)(C)C)C12C (stereo not shown) | microbial growth | ATCCBAA44 MRSA | drug-resistant strain | 312 mg/L
C[C@H](N)[C@@H](CCCCCCCCCCCCCCC(=O)CCCCCCC[C@@H](O)[C@@H](C)N)O[C@@H]1O[C@H](CO)[C@H](O)[C@H](O)[C@H]1O | microbial growth, resazurin | ATCC12600 | 6 h | 3.88 µM
CN[C@H](CC(C)C)C(=O)N[C@H]1C(=O)N[C@@H](CC(N)=O)C(=O)N[C@H]2C(=O)N[C@H]3C(=O)N[C@H](C(=O)N[C@H](C(=O)O)c4cc(O)cc(O)c4-c4cc3ccc4O)[C@H](O)c3ccc(c(Cl)c3)Oc3cc2cc(c3O[C@@H]2O[C@H](CO)[C@@H](O)[C@H](O)[C@H]2O[C@H]2C[C@](C)(NCc3ccc(C(=O)OCCCCCCN(Cc4ccccn4)Cc4ccccn4)cc3)[C@H](O)[C@H](C)O2)Oc2ccc(cc2Cl)[C@H]1O | microbial growth, broth dilution | ATCC33591 MRSA | drug-resistant strain | 0.8 µM
COc1ccc2ccc3c(c2c1)C=[N+]1C2CCCCC2[N+]2=Cc4cccc(C)c4[O][Au-]21[O]3.F[P-](F)(F)(F)(F)F (stereo not shown) | bacterial growth, broth microdilution | vancomycin-intermediate | 24 h | 10 µM
CCCCCCSCC1OC(OC2C(N)CC(N)C(OC3OC(CN)C(O)CC3N)C2O)C(O)C(N)C1O (stereo not shown) | – | NorA | – | > 150 mg/L
CN1CCNC1=S.CN1CCNC1=S.O=[N+]([O-])[O-].[Ag+].c1ccc(P(c2ccccc2)c2ccccc2)cc1 | agar dilution | methicillin-resistant | 24 h, 37 °C | 7 mg/L
CN1C(=O)[C@@H]2NC(=O)[C@@H]3NC(=O)[C@@H](c4ccc(O)cc4)NC(=O)[C@H](NC(=O)C(NCc4ccsc4)c4ccc(O)cc4)Cc4c[nH]c5cc(ccc45)-c4cc3cc(c4O)Oc3ccc(cc3)C[C@H]1C(=O)N[C@@H](C(=O)O)c1ccc(O)c(c1)Oc1ccc2cc1 (stereo partly shown) | – | ATCC 33591 MRSA, Mueller-Hinton broth | – | 4 mg/L
COc1cc(/C=N/N2C(=O)c3ccccc3NC2c2ccc(O)c(OC)c2)ccc1O (stereo not shown) | microbial growth, broth dilution | – | 24 h, drug-resistant strain, clinical isolate | > 256 mg/L
CC(C)C[C@@H]1NC(=O)[C@H](C)NC(=O)[C@@H]2NC(=O)[C@H](CO)NC(=O)[C@@H](CCCCN)NC(=O)[C@H](NC(=O)[C@@H](N)Cc3ccccc3)CCCCCCCC[C@H](NC1=O)C(=O)O[C@H]2C | – | MSSA ATCC 29213 | TFA salt | 16 mg/L
CC1=C[C@@]2(C)C(=C(C)[C@H]3[C@@H]4C[C@H](C)C[C@H](C)[C@H]4[C@H]4Oc5ccc(cc5)C[C@]5(O)NC(=O)[C@]6(O[C@H]65)C(=O)[C@@H]2[C@@H]43)[C@H]1C | microbial growth, broth dilution | ATCC700699 MRSA | drug-resistant strain | 3.1 µM
CC[C@H](C)[C@H](NC(=O)[C@H](CC(C)C)NC(=O)[C@H](CCC(N)=O)NC(=O)[C@H](CO)NC(=O)[C@H](CCCNC(=N)N)NC(=O)[C@@H](N)CO)C(=O)N[C@H](C(=O)N[C@@H](Cc1c[nH]cn1)C(=O)N[C@@H](CCC(N)=O)C(=O)N[C@@H](CCCNC(=N)N)C(=O)N[C@@H](CC(C)C)C(=O)N[C@@H](Cc1ccccc1)C(N)=O)C(C)C | broth microdilution | Mueller Hinton broth | – | > 400 mg/L
CN[C@@H]1[C@H](O)[C@H](NC)[C@H]2O[C@]3(O)[C@H](O[C@@H]2[C@H]1O)O[C@H](C)C[C@]3(O)CNCc1ccc(F)cc1 | – | MRSA NRS70 | – | > 200 mg/L
COc1cc(/C=C/C(=O)NCCCCCC(=O)N[C@@H](CCCNC(=N)N)C(=O)N[C@@H](CC(C)C)C(=O)N[C@@H](CC(C)C)C(=O)N[C@@H](CCCNC(=N)N)C(=O)N[C@@H](CCCNC(=N)N)C(=O)N[C@@H](CC(C)C)C(=O)N[C@@H](CC(C)C)C(=O)N[C@@H](CCCNC(=N)N)C(N)=O)ccc1O | broth microdilution | ATCC 25923 | 24 h, 37 °C | 36 µM
CC(C)C[C@H](NC(=O)[C@H](CC(C)C)NC(=O)[C@H](CCCCN)NC(=O)CNC(=O)[C@H](CC(C)C)NC(=O)[C@H](CC(C)C)NC(=O)[C@H](CO)NC(=O)[C@H](CC(C)C)NC(=O)[C@H](CC(C)C)NC(=O)[C@H](CO)NC(=O)[C@H](CC(C)C)NC(=O)[C@H](CC(C)C)NC(=O)CN)C(N)=O | broth microdilution | USA300 MRSA | – | 3.12 µM and 3.1 µM
CCCCCCCNS(=O)(=O)c1ccc(-n2nnc(/C(C)=N/NC(=N)N)c2C)cc1 | microbial growth, broth dilution | MRSA USA300 | drug-resistant strain | 64 mg/L
CC[C@H](C)[C@H](NC(=O)[C@@H](Cc1ccccc1)NC)C(=O)N[C@@H](CO)C(=O)N[C@H](CCC(N)=O)C(=O)N[C@@H](C(=O)N[C@H](C(=O)OC[C@H](N)C(=O)N[C@H]1C(=O)N[C@@H](C)C(=O)N[C@@H](C2CCCCC2)C(=O)N[C@@H]([C@@H](C)CC)C(=O)O[C@H]1C)[C@@H](C)CC)[C@@H](C)CC | broth microdilution | ATCC 29213, MSSA, Mueller-Hinton broth | 16 h, 37 °C | 0.5 mg/L
COc1ccc2cc3[n+](cc2c1OCCCOc1ccc(Cl)cc1)CCc1cc2c(cc1-3)OCO2 | microbial growth | ATCC29247 | drug-resistant strain, clinical isolate | 2 mg/L
N=C(N)NCCC[C@@H]1NC(=O)[C@H](CCCNC(=N)N)NC(=O)[C@H](CCCNC(=N)N)NC(=O)[C@H](CCCNC(=N)N)NC(=O)[C@H](Cc2c[nH]c3ccccc23)NC(=O)[C@H](CCCNC(=N)N)NC(=O)[C@H](CCCNC(=N)N)NC(=O)[C@@H](N)CCCCn2cc(nn2)C[C@@H](C(N)=O)NC1=O | – | – | 24 h, 37 °C, in 0.01% acetic acid | 62.5 mg/L
CCCCc1ccc(N2C(=O)/C(=N\NC(=N)N)c3cc(F)ccc32)cc1 | broth microdilution | BAA41 MRSA | 18 h, 37 °C | 12 mg/L
CCCO[C@H]1[C@H](O)[C@@H](N)[C@@H](O[C@H]2[C@H](O[C@@H]3O[C@H](CO)[C@@H](O[C@H]4O[C@@H](CN)[C@@H](O)[C@H](O)[C@H]4N)[C@H]3O)[C@@H](O)[C@H](N)C[C@@H]2N)O[C@@H]1CO | broth microdilution | MRSA isolate AG 044 | – | 8 mg/L
CC(C)C[C@@H]1NC(=O)[C@@H](CC(C)C)NC(=O)[C@H](CCN)NC(=O)[C@@H](NC(=O)Cn2cc(C[C@H](NC(=O)CC[C@@H]3NC(=O)[C@H](CCN)NC(=O)[C@H](Cc4ccc(O)cc4)NC(=O)[C@H]([C@@H](C)O)NC(=O)[C@H](C(C)C)NC(=O)[C@@H]4CCCN4C(=O)[C@@H](C)NC(=O)[C@H](CO)NC(=O)[C@H](C)NC(=O)[C@H](C(C)(C)C)NC(=O)[C@H](CCO)NC(=O)[C@H](Cc4c[nH]c5ccccc45)NC(=O)[C@H](CCO)NC(=O)[C@@H](CCN)NC3=O)C(N)=O)nn2)CCNC(=O)[C@H]([C@@H](C)O)NC(=O)[C@H](CCN)NC(=O)[C@H](CCN)NC1=O | broth microdilution | MRSA USA300, CAMHB with polysorbate-80 | 16 h | > 64 mg/L
CC[C@H](C)[C@H](N)C1=N[C@H](C(=O)N[C@@H](CC(C)C)C(=O)N[C@H](CCC(=O)O)C(=O)N[C@H](C(=O)N[C@H]2CCCCNC(=O)[C@H](CC(N)=O)NC(=O)[C@@H](CC(=O)O)NC(=O)[C@H](Cc3c[nH]cn3)NC(=O)[C@@H](Cc3ccc4ccccc4c3)NC(=O)[C@H]([C@@H](C)CC)NC(=O)[C@@H](CCCN)NC2=O)[C@@H](C)CC)CS1 | – | USA300 MRSA | 18 h, 37 °C, together with: ZnSO4 0.3 mM | 1 mg/L

Repeated from above:
SMILES | test | system | setting | MIC
CN1CCNC1=S.CN1CCNC1=S.O=[N+]([O-])[O-].[Ag+].c1ccc(P(c2ccccc2)c2ccccc2)cc1 | agar dilution | methicillin-resistant | 24 h, 37 °C | 7 mg/L
CN1C(=O)[C@@H]2NC(=O)[C@@H]3NC(=O)[C@@H](c4ccc(O)cc4)NC(=O)[C@H](NC(=O)C(NCc4ccsc4)c4ccc(O)cc4)Cc4c[nH]c5cc(ccc45)-c4cc3cc(c4O)Oc3ccc(cc3)C[C@H]1C(=O)N[C@@H](C(=O)O)c1ccc(O)c(c1)Oc1ccc2cc1 (stereo partly shown) | – | ATCC 33591 MRSA, Mueller-Hinton broth | – | 4 mg/L
